Published values pooled from the literature.
Numbered parts are unrelated; each lists some results of a single study. Substitutions count along the parent as printed.

Study 1
Target: human cyclin B2
Read-out: peptide binding
Method: yeast competitive growth sequencing
Form: peptide
Organism: Saccharomyces cerevisiae
Strain: cyclin B2-Cln2 fusion
Tested at: concentration not given
Setting: peptide tiling library
Reading: direction not given
Sequence | binding enrichment score
TLPYDLACTGGDFVLF | -0.184
GFGFLLFICKLTF | -0.0308
KRRLDLETDHQY | 0.379
TQERKQIHCLSEDELS | -0.671
SFLIEYEFLIPPSLKP | -0.165

Study 2
Target: ABI1, truncated, D143A, DHFR fusion (Arabidopsis thaliana)
Method: DHFR PCA, deep sequencing
Sample: yeast
Setting: methotrexate growth selection, single substitutions
Together with: (+)-ABA 0 µM
Reference: wild-type fitted maximum
Reading: higher = stronger binding
Starting sequence: PYL1, truncated, DHFR fusion (Arabidopsis thaliana); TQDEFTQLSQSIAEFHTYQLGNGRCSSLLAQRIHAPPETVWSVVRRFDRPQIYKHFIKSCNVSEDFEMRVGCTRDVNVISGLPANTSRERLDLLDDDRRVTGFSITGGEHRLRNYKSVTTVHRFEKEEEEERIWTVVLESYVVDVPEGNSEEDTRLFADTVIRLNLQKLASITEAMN
Substitution | relative binding score
K168Y | 1.01%
D159L | -9.93%
I12D | -1.4%
T160D | 0.706%
C60Y | 6.5%
E125W | 7.73%

Study 3
Target: Histone acetyltransferase KAT6A, both winged helices, GST fusion (KAT6A, Homo sapiens, UniProt Q92794, residues 1-181)
Method: protein binding microarray
Form: double-stranded DNA, one strand shown
Sample: in vitro
Tested at: not given
Setting: 8-mer, flanks averaged, mean of 2 arrays, mostly near background
Reference: not given
Reading: higher = stronger binding
Target sequence (chain): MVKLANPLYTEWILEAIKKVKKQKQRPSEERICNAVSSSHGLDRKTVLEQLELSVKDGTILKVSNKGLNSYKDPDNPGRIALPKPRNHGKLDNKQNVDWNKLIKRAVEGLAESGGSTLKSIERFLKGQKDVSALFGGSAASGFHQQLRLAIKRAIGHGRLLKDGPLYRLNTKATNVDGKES
Sequence | E-score
CTCGATGC | -0.156
ACTTCATG | -0.0131
ACGGCACC | 0.261
TGATACCA | -0.0749

Other studies, line by line
Molecule | target | assay | test system | conditions | scale | quantity | result
PhoQ, residues 284 288 289 292 302 303 SSTLSG | PhoP, residues 12 14 15 18 19 NNFVT (Escherichia coli, UniProt P23836) | Sort-seq, refers to: YFP reporter | E. coli | PhoQ-PhoP variant library, together with: 10 µM Mg2+ | reference: high Mg2+ state, higher = stronger signaling | fold induction | 1.23

For quick reference, copied from above (other studies, line by line):
Molecule | target | assay | test system | conditions | scale | quantity | result
PhoQ, residues 284 288 289 292 302 303 SSTLSG | PhoP, residues 12 14 15 18 19 NNFVT (Escherichia coli, UniProt P23836) | Sort-seq, refers to: YFP reporter | E. coli | PhoQ-PhoP variant library, together with: 10 µM Mg2+ | reference: high Mg2+ state, higher = stronger signaling | fold induction | 1.23
